Published values from different studies.
A part holds a random share of what one study measured. Substitutions count along the parent as printed.

Study 1
Target: Histone acetyltransferase KAT6A, winged helix 2, GST fusion (KAT6A, Homo sapiens, UniProt Q92794, residues 85-181)
Technique: protein binding microarray
Molecule type: double-stranded DNA, one strand shown
Matrix: in vitro
Tested at: not given
Setting: 8-mer, flanks averaged, mean of 2 arrays, mostly near background
Reference: not given
Direction: higher = stronger binding
Construct (chain): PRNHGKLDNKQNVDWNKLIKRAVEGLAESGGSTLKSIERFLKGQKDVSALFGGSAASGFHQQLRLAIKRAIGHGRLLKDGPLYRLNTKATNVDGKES
`AGTATACT` gave an E-score of -0.0504.
The E-score of `AGGGAATC` is reported as -0.053.
`AGGCTAGC` has an E-score of -0.0529.
The E-score of `ACACGGGA` is reported as 0.0395.
For `CGAGCGCC`, the E-score was 0.0875.
`AAAGACCA` has an E-score of -0.14.
For `AACAGCGA`, the E-score was -0.0386.
The E-score of `GTAATATA` is reported as 0.158.
`CATACCAC` has an E-score of -0.0632.
The E-score of `GATCCCTA` is reported as -0.127.
With `AGTTTCCA` the E-score was 0.139.
The E-score of `CTCACCTA` is reported as -0.0826.
`AAGCGATC` has an E-score of -0.012.
The E-score of `CGTGGGAC` is reported as 0.18.
The E-score of `AGCAATAT` is reported as 0.0341.
The E-score of `AACGCGTA` is reported as -0.112.

Study 2
Target: ABI1, truncated, D143A, DHFR fusion (Arabidopsis thaliana)
Technique: DHFR PCA, deep sequencing
Matrix: yeast
Setting: methotrexate growth selection, single substitutions
With: (+)-ABA 58 µM
Reference: wild-type fitted maximum
Direction: higher = stronger binding
Starting sequence: PYL1, truncated, DHFR fusion (Arabidopsis thaliana); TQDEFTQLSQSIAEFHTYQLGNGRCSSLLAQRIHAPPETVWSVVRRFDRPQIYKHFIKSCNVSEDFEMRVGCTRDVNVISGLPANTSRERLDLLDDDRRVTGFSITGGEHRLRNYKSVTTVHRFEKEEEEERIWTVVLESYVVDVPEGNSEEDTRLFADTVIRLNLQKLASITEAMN
For `T101Q`, “relative binding score” read 34.5%.
`R46Y` — result for “relative binding score”: 11.1%.
`D144R` — result for “relative binding score”: 32.9%.
Under “relative binding score”, `L156Y` is recorded as 75.7%.
For `V100M`, “relative binding score” read 78.2%.
For `I12S`, “relative binding score” read 17.9%.
Under “relative binding score”, `Y18R` is recorded as 74.3%.
`D97Q`: “relative binding score” 97.2%.
Under “relative binding score”, `E38L` is recorded as 33.9%.
`E151Y` — result for “relative binding score”: 75.2%.
`T160M`: “relative binding score” 78.8%.
For `R98I`, “relative binding score” read 73.2%.
`T73P`: “relative binding score” 11.9%.
`R99A`: “relative binding score” 55.9%.
`F5M`: “relative binding score” 95.7%.
`T135I` — result for “relative binding score”: 4.36%.
`D75N`: “relative binding score” 89.5%.

Study 3
Target: NFE2L2, bZIP domain (human)
Technique: DHFR protein complementation
Matrix: yeast
Setting: single substitutions, most at no-binding floor
Reference: wild-type JUN-FOS pair
Direction: higher = stronger binding
Starting sequence: JUN, bZIP domain (human); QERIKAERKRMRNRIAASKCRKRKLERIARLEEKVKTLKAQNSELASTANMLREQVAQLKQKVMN; partner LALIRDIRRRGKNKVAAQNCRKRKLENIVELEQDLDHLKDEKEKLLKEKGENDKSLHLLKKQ
`E33H` gave a binding fitness of -1.47 natural log.
`R53A` has a binding fitness of -1.54 natural log.
With `E33S` the binding fitness was -1.27 natural log.
`N42W` has a binding fitness of -1.55 natural log.
With `R53G` the binding fitness was -1.54 natural log.
The binding fitness of `A29G` is reported as -1.4 natural log.
With `E33C` the binding fitness was -1.43 natural log.
The binding fitness of `A29K` is reported as -1.22 natural log.
With `E54L` the binding fitness was -1.4 natural log.
`L52C` gave a binding fitness of -1.57 natural log.
With `M51T` the binding fitness was -1.51 natural log.
`M51E` has a binding fitness of -1.4 natural log.
The binding fitness of `E54K` is reported as -1.15 natural log.
With `K39I` the binding fitness was -1.22 natural log.
`S43N` has a binding fitness of -1.1 natural log.
For `E33N`, the binding fitness was -1.4 natural log.

Study 4
Target: CCND2, cyclin fold, Cln2 fusion (human)
Technique: yeast growth competition, sequencing
Matrix: yeast
Setting: weak parent motif
Reference: not given
Direction: higher = stronger binding
Starting sequence: BRCA2 docking peptide (human); PSIKRNLLNEFDR; partner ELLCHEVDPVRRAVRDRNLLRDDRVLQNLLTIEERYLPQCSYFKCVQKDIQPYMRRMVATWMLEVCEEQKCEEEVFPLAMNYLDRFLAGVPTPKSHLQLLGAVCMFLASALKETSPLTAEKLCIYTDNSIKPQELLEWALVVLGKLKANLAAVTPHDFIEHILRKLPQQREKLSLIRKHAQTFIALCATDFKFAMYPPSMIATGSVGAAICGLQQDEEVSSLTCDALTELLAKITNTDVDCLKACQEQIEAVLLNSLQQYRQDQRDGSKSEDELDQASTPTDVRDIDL
For `D12H`, “normalised enrichment score” read -0.114.
Under “normalised enrichment score”, `R13A` is recorded as 0.395.
`S2Y` — result for “normalised enrichment score”: 0.411.
For `D12L`, “normalised enrichment score” read 0.0611.
Under “normalised enrichment score”, `S2G` is recorded as 0.0997.
Under “normalised enrichment score”, `S2L` is recorded as 0.953.
`N6A`: “normalised enrichment score” 0.205.
For `N6W`, “normalised enrichment score” read 0.171.
Under “normalised enrichment score”, `I3H` is recorded as 0.287.
Under “normalised enrichment score”, `R5F` is recorded as -0.514.
Under “normalised enrichment score”, `P1D` is recorded as 0.221.
`N6E` — result for “normalised enrichment score”: 0.39.
`I3T`: “normalised enrichment score” -0.264.
`R13I` — result for “normalised enrichment score”: 1.11.
`L8C` — result for “normalised enrichment score”: 0.163.
For `I3S`, “normalised enrichment score” read 0.0966.
`E10Q` — result for “normalised enrichment score”: 0.0888.
`I3P` — result for “normalised enrichment score”: 0.415.
`D12V` — result for “normalised enrichment score”: 0.214.
`K4M` — result for “normalised enrichment score”: -0.0574.
`K4R` — result for “normalised enrichment score”: 0.0998.
For `S2Q`, “normalised enrichment score” read 0.283.
`I3E` — result for “normalised enrichment score”: 0.24.
`E10R` — result for “normalised enrichment score”: -0.185.
Under “normalised enrichment score”, `L8R` is recorded as -0.224.

Study 5
Target: RNA binding protein fox-1 homolog 2, RRM domain, GST-SBP tag (RBFOX2, Homo sapiens, UniProt O43251-10, residues 100-194)
Technique: RNA Bind-n-Seq
Molecule type: RNA
Matrix: in vitro
Tested at: 365 nM
Setting: natural RNA segment, single round, ends assumed
Reference: no-protein control
Direction: higher = stronger binding
Residues (chain): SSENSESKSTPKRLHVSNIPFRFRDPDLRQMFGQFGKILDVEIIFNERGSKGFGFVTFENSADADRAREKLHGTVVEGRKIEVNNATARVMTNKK
`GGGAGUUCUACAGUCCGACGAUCUUUGUUUUUUGUUUUUGUUUUUAACCUAGAAGAACCAAAUCUGGACGCCAAAACGUAGGCUUAGUUUGUGUGUUGUCUCUGAGUUUGUCGCUCAUGCGUACAACAGGGUAUGGAAUUCUCGGGUGCCAA` — result for “RBNS enrichment (R)”: 0.511.
For `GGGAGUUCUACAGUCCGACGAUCGGUGGACCCCCAUGAGUCAAUGGAGGGCAGACGGCUCUCCCCCUUAAAGCUGUUCCCUGGGGGAUGGCUUGGUAGUGGACUUUCUGGGGUUUGCCUGUUACGCCAGACUCUGGAAUUCUCGGGUGCCAA`, “RBNS enrichment (R)” read 0.27.
Under “RBNS enrichment (R)”, `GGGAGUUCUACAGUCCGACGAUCCAGGGACCAUUAGUGUCUUUUUAAAAUUACAUUUUAUUUCACAUUUCAUAAUUCAGAAGUAAACCUUUCAUAGGAAAAAUACUGAGCUGUGCUAAUGUAGCUGAUUUUAGUGGAAUUCUCGGGUGCCAA` is recorded as 0.354.
`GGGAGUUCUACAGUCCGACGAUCCCUGACCUCGUGAUCCGCCCGCCUUGGCCUCCCAAGGUGCUGGGAUUACAAGCGUGAGCCACCGCACCCGGCCUGAAAAUAUUUUCUAAAAAGAUAAAAAAUAUACAUAAUGGAAUUCUCGGGUGCCAA` — result for “RBNS enrichment (R)”: 0.333.
`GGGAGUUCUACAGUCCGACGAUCUGAUUAUGAAAGAGUGAAUUUUUCUGGACAGAAAAGGGAGAGCUACCAAAUUGUUUUUUUCUUUUUAAAAGGAAGUUUAAUGUCCGUUGUAUCACAAAUCAGUGUUAAAAUGGAAUUCUCGGGUGCCAA` — result for “RBNS enrichment (R)”: 0.503.
`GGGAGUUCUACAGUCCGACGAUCAUGACAUUUUUUAUCUGUAUACUUUUUUGAUGUGAUUGUUUUUUAACAUGCUAAAAGUAAUAAGUAUUUUUGUGUCUUUUAUGUGCAUUUUUUUCAUACGGCAAAAAUGGUGGAAUUCUCGGGUGCCAA`: “RBNS enrichment (R)” 1.36.
`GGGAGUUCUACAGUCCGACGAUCAGAAAUAUUUUUAUAUGCGUUGUGUAAUUUAUAACAAGGGGUUUUCUUUUAGGCUUUGUUAACUGAAUGCUCCUCUCCUCCUCCACUGCAUAGUUAAAGCAUGUGUUCACUGGAAUUCUCGGGUGCCAA`: “RBNS enrichment (R)” 4.09.
Under “RBNS enrichment (R)”, `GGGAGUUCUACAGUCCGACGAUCGUGCUGUCUUGGUACUAGUGUAGUGACUUUUUUUCUCCUCUUCUAGUACAUAUUGAUAGGUAUAAUGUAAUUAAGGUUUUAAAAAAAAUAGACAUAGUUAUUCAGAUUAGUGGAAUUCUCGGGUGCCAA` is recorded as 0.58.

Repeated from above (study 5):
`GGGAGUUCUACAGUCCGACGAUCUUUGUUUUUUGUUUUUGUUUUUAACCUAGAAGAACCAAAUCUGGACGCCAAAACGUAGGCUUAGUUUGUGUGUUGUCUCUGAGUUUGUCGCUCAUGCGUACAACAGGGUAUGGAAUUCUCGGGUGCCAA` — result for “RBNS enrichment (R)”: 0.511.
Under “RBNS enrichment (R)”, `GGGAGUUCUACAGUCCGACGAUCCAGGGACCAUUAGUGUCUUUUUAAAAUUACAUUUUAUUUCACAUUUCAUAAUUCAGAAGUAAACCUUUCAUAGGAAAAAUACUGAGCUGUGCUAAUGUAGCUGAUUUUAGUGGAAUUCUCGGGUGCCAA` is recorded as 0.354.
`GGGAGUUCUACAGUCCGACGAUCUGAUUAUGAAAGAGUGAAUUUUUCUGGACAGAAAAGGGAGAGCUACCAAAUUGUUUUUUUCUUUUUAAAAGGAAGUUUAAUGUCCGUUGUAUCACAAAUCAGUGUUAAAAUGGAAUUCUCGGGUGCCAA` — result for “RBNS enrichment (R)”: 0.503.
Under “RBNS enrichment (R)”, `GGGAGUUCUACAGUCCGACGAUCGUGCUGUCUUGGUACUAGUGUAGUGACUUUUUUUCUCCUCUUCUAGUACAUAUUGAUAGGUAUAAUGUAAUUAAGGUUUUAAAAAAAAUAGACAUAGUUAUUCAGAUUAGUGGAAUUCUCGGGUGCCAA` is recorded as 0.58.
`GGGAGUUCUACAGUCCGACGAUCCCUGACCUCGUGAUCCGCCCGCCUUGGCCUCCCAAGGUGCUGGGAUUACAAGCGUGAGCCACCGCACCCGGCCUGAAAAUAUUUUCUAAAAAGAUAAAAAAUAUACAUAAUGGAAUUCUCGGGUGCCAA` — result for “RBNS enrichment (R)”: 0.333.
For `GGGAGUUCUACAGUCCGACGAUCGGUGGACCCCCAUGAGUCAAUGGAGGGCAGACGGCUCUCCCCCUUAAAGCUGUUCCCUGGGGGAUGGCUUGGUAGUGGACUUUCUGGGGUUUGCCUGUUACGCCAGACUCUGGAAUUCUCGGGUGCCAA`, “RBNS enrichment (R)” read 0.27.
`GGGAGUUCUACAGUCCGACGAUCAGAAAUAUUUUUAUAUGCGUUGUGUAAUUUAUAACAAGGGGUUUUCUUUUAGGCUUUGUUAACUGAAUGCUCCUCUCCUCCUCCACUGCAUAGUUAAAGCAUGUGUUCACUGGAAUUCUCGGGUGCCAA`: “RBNS enrichment (R)” 4.09.
`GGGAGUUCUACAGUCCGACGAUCAUGACAUUUUUUAUCUGUAUACUUUUUUGAUGUGAUUGUUUUUUAACAUGCUAAAAGUAAUAAGUAUUUUUGUGUCUUUUAUGUGCAUUUUUUUCAUACGGCAAAAAUGGUGGAAUUCUCGGGUGCCAA`: “RBNS enrichment (R)” 1.36.
